# Measured values of several laboratories.
# Protocols differ between the studies behind these lines. Values joined by “and” are separate records of one study, mostly repeats; a detail may differ. Numbers after ± are the reported error.
# Organism: Staphylococcus aureus
Compound,assay,system,setting,scale,measurement,result
COc1cc(/C=C/C(=O)O)ccc1O,bacterial growth,ATCC 29213,24 h,,IC50,> 100 µM
c1ccc(CN(CCN(Cc2ccccn2)Cc2ccccn2)Cc2ccccn2)nc1,Calgary biofilm device,MRSA BAA-1707,,,MBC,> 2000 µM
CNC(C)C1CCC(N)C(OC2C(N)CC(N)C(OC3OCC(C)(O)C(NC)C3O)C2O)O1 (stereo not shown),,"clinical isolate S.A10, RPMI with FBS","24 h, 37 °C",,MIC,0.39 µM
CN[C@H](CC(C)C)C(=O)N[C@H]1C(=O)N[C@@H](CC(N)=O)C(=O)N[C@H]2C(=O)N[C@H]3C(=O)N[C@H](C(=O)N[C@H](C(=O)O)c4cc(O)cc(O)c4-c4cc3ccc4O)[C@H](O)c3ccc(c(Cl)c3)Oc3cc2cc(c3O[C@@H]2O[C@H](CO)[C@@H](O)[C@H](O)[C@H]2O[C@H]2C[C@](C)(N)[C@H](O)[C@H](C)O2)Oc2ccc(cc2Cl)[C@H]1O,,"USA300 LAC, female ICR mice, peritonitis, peritoneal fluid",,,bacterial load,4.5 log CFU and 5.31 log CFU and 4.85 log CFU and 3.88 log CFU and 4.75 log CFU and 3.22 log CFU
O=C(O)C=Cc1ccc(O)cc1,bacterial growth,ATCC 29213,24 h,,IC50,> 100 µM
CN[C@H](CC(C)C)C(=O)N[C@H]1C(=O)N[C@@H](CC(N)=O)C(=O)N[C@H]2C(=O)N[C@H]3C(=O)N[C@H](C(=O)N[C@H](C(=O)O)c4cc(O)cc(O)c4-c4cc3ccc4O)[C@H](O)c3ccc(c(Cl)c3)Oc3cc2cc(c3O[C@@H]2O[C@H](CO)[C@@H](O)[C@H](O)[C@H]2O[C@H]2C[C@](C)(N)[C@H](O)[C@H](C)O2)Oc2ccc(cc2Cl)[C@H]1O,,ATCC 29213,,,MBC range,4 µg/mL
CC1(C)OCC(C(=O)NCc2ccccc2)O1 (stereo not shown),crystal violet staining,,"500 µg/mL, 24 h",relative to: untreated,residual biofilm,34 ± 8%
CC(=O)NC[C@H]1CN(c2ccc(N3CCOCC3)c(F)c2)C(=O)O1,broth microdilution,methicillin-resistant isolates,,,MIC50,0.5 µg/mL
CN[C@H](CC(C)C)C(=O)N[C@H]1C(=O)N[C@@H](CC(N)=O)C(=O)N[C@H]2C(=O)N[C@H]3C(=O)N[C@H](C(=O)N[C@H](C(=O)O)c4cc(O)cc(O)c4-c4cc3ccc4O)[C@H](O)c3ccc(c(Cl)c3)Oc3cc2cc(c3O[C@@H]2O[C@H](CO)[C@@H](O)[C@H](O)[C@H]2O[C@H]2C[C@](C)(N)[C@H](O)[C@H](C)O2)Oc2ccc(cc2Cl)[C@H]1O,,clinical isolates,"≤0.5 µg/mL, MIC breakpoint",,isolates inhibited,13.6%
CC[C@@H](C)[C@H]1O[C@@H](c2c(O)c(-c3ccccc3)cn(O)c2=O)[C@H](C)C[C@@H]1C,bacterial growth,"ATCC 33591, MRSA",,,IC50,> 20 µg/mL
CN[C@H](CC(C)C)C(=O)N[C@H]1C(=O)N[C@@H](CC(N)=O)C(=O)N[C@H]2C(=O)N[C@H]3C(=O)N[C@H](C(=O)N[C@H](C(=O)O)c4cc(O)cc(O)c4-c4cc3ccc4O)[C@H](O)c3ccc(c(Cl)c3)Oc3cc2cc(c3O[C@@H]2O[C@H](CO)[C@@H](O)[C@H](O)[C@H]2O[C@H]2C[C@](C)(N)[C@H](O)[C@H](C)O2)Oc2ccc(cc2Cl)[C@H]1O,,ATCC 29213,added: EDTA 0.3 mM,,MIC,1 µg/mL
C=CC[C@@H]1c2ccc(OC)c(OC)c2CN2CCc3cc4c(cc3[C@H]12)OCO4,,"P2rx7+/+ mice, skin wound infection","dose not given, day 1",relative to: day 0,relative wound size,0.95 and 0.93 and 0.81 and 0.94 and 1.08
Cc1ccc(C[C@H](NC(=O)[C@@H](Cc2ccccc2)NC(=O)[C@@H](Cc2c[nH]c3ccccc23)NC(=O)[C@@H](N)CCCN)C(=O)N[C@H](Cc2ccccc2)C(=O)N[C@@H](Cc2ccc(N)cc2)C(N)=O)cc1,,"ATCC 33591, methicillin-resistant",,,IC50,> 20 µg/mL
CC[C@H]1OC(=O)[C@H](C)[C@@H](O[C@H]2C[C@@](C)(OC)[C@@H](O)[C@H](C)O2)[C@H](C)[C@@H](O[C@@H]2O[C@H](C)C[C@H](N(C)C)[C@H]2O)[C@](C)(O)C[C@@H](C)C(=O)[C@H](C)[C@@H](O)[C@]1(C)O,,CGMCC 1.9,"concentration not given, 18 h, 37 °C",,inhibition zone diameter,20.5 mm
NCCCC[C@H](NC(=O)[C@H](Cc1ccccc1)NC(=O)[C@H](CCC(N)=O)NC(=O)[C@H](Cc1ccccc1)NC(=O)[C@H](CCC(N)=O)NC(=O)[C@@H](N)Cc1ccccc1)C(N)=O,,ATCC 25923,,,MBC,2080 µM
CN[C@H](CC(C)C)C(=O)N[C@H]1C(=O)N[C@@H](CC(N)=O)C(=O)N[C@H]2C(=O)N[C@H]3C(=O)N[C@H](C(=O)N[C@H](C(=O)O)c4cc(O)cc(O)c4-c4cc3ccc4O)[C@H](O)c3ccc(c(Cl)c3)Oc3cc2cc(c3O[C@@H]2O[C@H](CO)[C@@H](O)[C@H](O)[C@H]2O[C@H]2C[C@](C)(N)[C@H](O)[C@H](C)O2)Oc2ccc(cc2Cl)[C@H]1O,,"CMCC 26003, mouse skin infection model","topical, 2 mg/kg, day 12",,remaining wound area,8.21%
O=C(O)c1ccc(-n2cc(CNc3ccc(Cl)c(C(F)(F)F)c3)c(-c3cccc(F)c3)n2)cc1,,ATCC 25923,"biofilm, Calgary device",,MBEC,2 × MIC
OC[C@H]1O[C@@H](Oc2cc3c(O[C@@H]4O[C@H](CO)[C@@H](O)[C@H](O)[C@H]4O)cc(O)cc3[o+]c2-c2ccc(O)c(O)c2)[C@H](O)[C@@H](O)[C@@H]1O,bacterial growth,ATCC 29213,24 h,,IC50,> 100 µM
CCN1CCN(c2cc3c(cc2F)c(=O)c(C(=O)O)cn3C2CC2)CC1,,CGMCC 1.9,"concentration not given, 18 h, 37 °C",,inhibition zone diameter,18 mm
CN[C@H](CC(C)C)C(=O)N[C@H]1C(=O)N[C@@H](CC(N)=O)C(=O)N[C@H]2C(=O)N[C@H]3C(=O)N[C@H](C(=O)N[C@H](C(=O)O)c4cc(O)cc(O)c4-c4cc3ccc4O)[C@H](O)c3ccc(c(Cl)c3)Oc3cc2cc(c3O[C@@H]2O[C@H](CO)[C@@H](O)[C@H](O)[C@H]2O[C@H]2C[C@](C)(N)[C@H](O)[C@H](C)O2)Oc2ccc(cc2Cl)[C@H]1O,H&E histology,"MRSA GU-1, mouse skin infection model, skin",2.5 mg/kg,direction not given,skin inflammation score,1
c1ccc(CN(CCN(Cc2ccccn2)Cc2ccccn2)Cc2ccccn2)nc1,Calgary Biofilm Device,MRSA 1707,24 h,,MBC,375 µM
CC(C)c1ccc(/C=C2\N=C(SCc3ccc([N+](=O)[O-])cc3)N(c3ccccc3)C2=O)cc1,,ATCC 6538,concentration not given,,inhibition zone diameter,11 ± 0.66 mm
O=c1c(O[C@@H]2O[C@H](CO)[C@@H](O)[C@H](O)[C@H]2O)c(-c2ccc(O)c(O)c2)oc2cc(O)cc(O)c12,bacterial growth,ATCC 29213,24 h,,IC50,> 100 µM
CN[C@H](CC(C)C)C(=O)N[C@H]1C(=O)N[C@@H](CC(N)=O)C(=O)N[C@H]2C(=O)N[C@H]3C(=O)N[C@H](C(=O)N[C@H](C(=O)O)c4cc(O)cc(O)c4-c4cc3ccc4O)[C@H](O)c3ccc(c(Cl)c3)Oc3cc2cc(c3O[C@@H]2O[C@H](CO)[C@@H](O)[C@H](O)[C@H]2O[C@H]2C[C@](C)(N)[C@H](O)[C@H](C)O2)Oc2ccc(cc2Cl)[C@H]1O,,"09057, female BALB/c mice, sepsis, lung","intraperitoneal, 20 mg/kg",,log bacterial load,5.61 log(CFU/g) and 5.45 log(CFU/g) and 6.31 log(CFU/g) and 6.72 log(CFU/g) and 5.54 log(CFU/g) and 5.57 log(CFU/g)
O=C(O)c1ccc(-n2cc(CNc3cc(Br)cc(C(F)(F)F)c3)c(-c3ccc(F)c(F)c3)n2)cc1,,"ATCC 700699, MRSA",4 × MIC,,time to kill below detection,≤ 10 h

# Repeated from above:
Compound,assay,system,setting,scale,measurement,result
c1ccc(CN(CCN(Cc2ccccn2)Cc2ccccn2)Cc2ccccn2)nc1,Calgary biofilm device,MRSA BAA-1707,,,MBC,> 2000 µM
COc1cc(/C=C/C(=O)O)ccc1O,bacterial growth,ATCC 29213,24 h,,IC50,> 100 µM
